# Measurements gathered from unrelated publications.
# Each line is one published result; not all experiments were run side by side. Values joined by “and” are separate records of one study, mostly repeats; a detail may differ. Numbers after ± are the reported error.
SMILES,cell line,assay,test system,conditions,how to read,quantity,result
COc1ccc(-n2nc(C(C)=O)s/c2=N\N=C(/C)c2ccc(NC(=O)c3ccc(C)cc3)cc2)cc1,HepG2,,,2.5 µM,,viability,11.9%
COc1cnc2cccc(N3CCc4c(cc(Cn5ccnc5C)cc4-c4cn(C)nc4C(F)(F)F)C3=O)c2c1,MDA-MB-436,"cell growth, inhibitor",,120 h,,EC50,0.154 µM
Cc1cc(Nc2ncc(Cl)c(Nc3ccccc3S(=O)(=O)C(C)C)n2)c(OC(C)C)cc1C1CCNCC1,CLB-GE,"phosphoproteomics LC-MS/MS, measured: TJAP1 phosphorylation",,"200 nM, 60 min",baseline: untreated,log2 fold change,-2.02
Nc1cccc2c1C(=O)N(C1CCC(=O)NC1=O)C2=O (centres unmarked),RPMI-8226,"flow cytometry, measured: CD30",,concentration not given,baseline: comparator compound alone,surface marker level,397%
C=CCn1c(=O)c2cnc(Nc3ccc(N4CCN(C)CC4)cc3)nc2n1-c1ccc2c(n1)[C@@](O)(CC)CC2,MDA-MB-231,flow cytometry,,concentration not given,,EdU-negative S phase mitotic cells,2.73%
COc1cccc2c1C(=O)c1c(O)c3c(c(O)c1C2=O)C[C@@](O)(C(=O)CO)C[C@@H]3O[C@H]1C[C@H](N)[C@H](O)[C@H](C)O1,HepG2,"CellTiter-Glo, measured: cellular ATP",,"24 h, representative mode",,point of departure,0.0174 µM
O=C(/C=C/C=C/C=C/C1CCCCC1)NC1=C[C@@](O)(/C=C/C=C/C=C/C(=O)NC2=C(O)CCC2=O)[C@@H]2O[C@@H]2C1=O,KNS-42,"cell growth, CellTiter-Glo",,78 h,,GI50,24 µM
O=C(O)c1cc(-c2ccccc2)nc2ccccc12,human iPSC-derived cardiomyocytes,"MyBP-C/MYH ratio, plate-normalised SD score",,"concentration not given, primary screen",direction not given,activity score,-3.5
CCOC(=O)c1ccc(NC2CCCCC2)c(N)c1,BJeLR,"protection from ferroptosis, PrestoBlue",,"24 h, with: erastin 10 µM",,EC50,0.076 µM
C=CC1=C(C)c2cc3[n-]c(cc4nc(cc5[n-]c(cc1n2)c(C)c5C=C)C(C)=C4CCC(=O)O)c(CCC(=O)O)c3C.[Zn+2],SH-SY5Y,"RNA-seq, measured: ERRFI1 mRNA",,"5 µM, 5 h",baseline: untreated cells,fold change,1.58
CCCCc1nc(Cl)c(CO)n1Cc1ccc(-c2ccccc2-c2nn[nH]n2)cc1,human PBMC,"RNA-seq, measured: NFXL1 mRNA",,"10 µg/mL, 24 h",baseline: untreated control,log2 fold change,-1.98
O=C(CCCSc1nc2ccccc2c(=O)[nH]1)Nc1ccc(OC(F)F)cc1,"cells, COS-1, expressing proMMP-9","cell migration, 2D collagen dot migration",,"50 µM, 18 h",,inhibition,78 ± 3%
Cc1ncsc1-c1ccc([C@H](C)NC(=O)[C@@H]2C[C@@H](O)CN2C(=O)[C@@H](NC(=O)CCCCCCCCC(=O)N(CCO)CCCOc2ccc3c(Nc4cc(CC(=O)Nc5cccc(F)c5)[nH]n4)ncnc3c2)C(C)(C)C)cc1,PC-3 and HPAF-II cells,"western blot, measured: MAPK",,"1 µM, 24 h",,protein level,no effect
CC(=O)Nc1cccc(-n2c(=O)n(C3CC3)c(=O)c3c(Nc4ccc(I)cc4F)n(C)c(=O)c(C)c32)c1,LoVo (KRAS G13D),"cell viability, resazurin",,"6.25 nM, 72 h",baseline: DMSO,fractional effect,0.256 and 0.346
COc1ccc(OC)c(Nc2nc3nonc3nc2N2CCCC(C)C2)c1 (centres unmarked),C127 LDR GFP reporter cells,"silenced GFP reporter induction, activator, high-content imaging",,"retest, two-run mean",,efficacy,31%
Cc1cc2c(cc1N1C(=O)c3cccc4c(CCCO)ccc(c34)C1=O)n(C)c(=O)n2C (racemic),5637,"cell growth, alamarBlue",urinary bladder,,,GI50,7.98 µM
CC(C)NCC(O)c1ccc(O)c(O)c1 (centres unmarked),mouse ventricular cardiomyocytes,,,"dose not given, 0.239 s",,sarcomere length,1.8 µm
CCc1c(-c2ccccc2)c(-c2ccccc2)nn1-c1ccccc1-c1cccc(OCC(=O)O)c1,mouse bone marrow macrophages,TRAP staining,,"10 µM, 4 days, with: M-CSF, RANKL, FABP4 25 ng/mL",,osteoclast number,70 and 112 and 101 and 88
CN(C)CCOc1ccc(/C(=C(/CCCl)c2ccccc2)c2ccccc2)cc1,human iPSC-derived cardiomyocytes,"MyBP-C/MYH ratio, plate-normalised SD score",,"concentration not given, primary screen",direction not given,activity score,17.1
N#Cc1sc2nc(-c3ccccc3)cc(C(F)(F)F)c2c1N,C127 LDR GFP reporter cells,"silenced GFP reporter induction, activator, high-content imaging",,"retest, two-run mean",,efficacy,20%
CC(=O)Nc1ccc(OC(=O)c2ccccc2O)cc1,human iPSC-derived cardiomyocytes,"MyBP-C/MYH ratio, plate-normalised SD score",,"concentration not given, primary screen",direction not given,activity score,3
CSc1nc(-c2ccc(Cl)cc2)c2c(NC(=O)c3ccccc3)nnc-2[nH]1,NCI60 cell panel,SRB,,10 µM,,mean growth percent,93.2%
COc1ccc2nc([S@@+]([O-])Cc3ncc(C)c(OC)c3C)[nH]c2c1,human iPSC-derived cardiomyocytes,"MyBP-C/MYH ratio, plate-normalised SD score",,"concentration not given, primary screen",direction not given,activity score,-3.5
Cn1cc(Nc2nccc(-c3ccc4c(c3)CN(C3COC3)CC[C@H]4NC(=O)c3cn(C(C)(C)C)nn3)n2)cn1,human B cells,,,"100 nM, 64 h, stimulation-downregulated genes, with: CpG ODN2006",,number of unchanged genes,54
C=Cc1c2[n-]c(c1C)/C=c1\[n-]/c(c(C)c1C=C)=C\c1[n-]c(c(CCC(=O)O)c1C)/C=c1\[n-]c(c(C)c1CCC(=O)O)=C2.[Sn+4],SH-SY5Y,"RNA-seq, measured: SYT12 mRNA",,"5 µM, 5 h",baseline: untreated cells,fold change,3.48
C=CC(=O)N1[C@@H](c2ccc3c(c2)OCO3)c2[nH]c3ccccc3c2C[C@H]1C(=O)NC,rat DRG neurons,,,"0.04115 µM, 48 h, with: vincristine 40 nM",,mean neuron degeneration,78.9%
O=c1[nH]c(=O)c2cc(S(=O)(=O)Nc3ccc(N4CCCCCC4)cc3)ccc2[nH]1,adult rat ventricular myocytes,,,10 µM,baseline: basal,cell length,96%
NCCCC[C@H](N[C@@H](CCc1ccccc1)C(=O)O)C(=O)N1CCC[C@H]1C(=O)O,human iPSC-derived cardiomyocytes,"MyBP-C/MYH ratio, plate-normalised SD score",,"concentration not given, primary screen",direction not given,activity score,-3.6
CC(C)C(=O)N1CCN(c2ccc(NC(=O)c3ccc([N+](=O)[O-])o3)cc2Cl)CC1,C127 LDR GFP reporter cells,"silenced GFP reporter induction, activator, high-content imaging",,"retest, two-run mean",,efficacy,69%
O=C(Nc1nnc2n3c(=S)[nH][nH]c3nc(-c3ccc(Cl)cc3)c1-2)c1ccccc1,NCI60 cell panel,SRB,,10 µM,,mean growth percent,94.9%
CCn1cc(-c2cc(Cn3ccnc3)cc3c2CCN([C@H](c2cc(OC)ccn2)C2CC2)C3=O)c(C(F)(F)F)n1,MDA-MB-436,"cell growth, inhibitor",,120 h,,EC50,1.87 µM
NCCOc1cc(C(=O)Nc2cc(OCCN3CCCC3)c3ccccc3n2)nc(C(=O)Nc2cc(OCCN3CCCC3)c3ccccc3n2)c1,U2OS,"cell viability, CellTiter-Glo",,72 h,baseline: IC50 U2OS over WI-38,selectivity ratio,2.6
C#C[C@@]1(O)[C@@H](CO)O[C@@H](n2ccc3c(N)ncnc32)[C@@H]1O,M14,SRB,,NCI-60 screen,,TGI,3 µM
COc1cccc(OC)c1-c1cc(C(=O)NC2(C(=O)O)C3CC4CC(C3)CC2C4)nn1-c1ccc(C(=O)N(C)CCCN(C)CCCN(C)C(=O)CN2CCN(CC(=O)[O-])CCN(CC(=O)[O-])CCN(CC(=O)[O-])CC2)cc1C(C)C.[177Lu+3] (centres unmarked),HT-29,,,24 h,baseline: internalized,efflux,79 ± 4%
Cc1cc(NC(=O)C2CCCN(S(=O)(=O)c3cccc4nonc34)C2)ccc1Br (centres unmarked),C127 LDR GFP reporter cells,"silenced GFP reporter induction, activator, high-content imaging",,"retest, two-run mean",,efficacy,32%
Cn1cncc1C1=CN(c2ncnc3[nH]cnc23)CCS1,M14,,,melanoma cell line,,GI50,8.5 µM
CCn1cc(-c2cc(Cn3ccoc3=N)cc3c2CCN([C@@H](C)c2cc(OC)ccn2)C3=O)c(C(F)(F)F)n1,KYM1,cell growth,,120 h,,EC50,4.78 µM
CC/C(=N\NC(=O)NCc1cccc(O)c1)c1ccc(O)c(C)c1O,SK-OV-3,"gene expression, microarray, measured: GDF15",,"10 µM, 24 h",baseline: DMSO,log ratio,-2.87
CC[C@H](C)N(CC(=O)N(CC(=O)N(CC(=O)N(CC(=O)N(CC(=O)N(CC(=O)N(CC(N)=O)[C@@H](C)c1ccccc1)[C@@H](C)c1ccccc1)[C@@H](C)CC)[C@@H](C)c1ccccc1)[C@@H](C)c1ccccc1)[C@@H](C)CC)C(=O)CNCCCCN,THP-1 macrophages,confocal immunocytochemistry,,"50 µM, 72 h, with: LPS 2 ng/mL",,RAGE surface expression,decreased
CC(C)[C@@H]1CC[C@@H](C)C[C@H]1O,human iPSC-derived cardiomyocytes,"MyBP-C/MYH ratio, plate-normalised SD score",,"concentration not given, primary screen",direction not given,activity score,12
CC(=O)c1nn(-c2ccc(Cl)cc2)/c(=N/N=C(\C)c2ccc(NC(=O)c3ccccc3)cc2)s1,HepG2,,,0.078 µM,,toxicity,0.409% and 9.95%
CCCCN1CCN(c2ccc3[nH]c(-c4ccc5[nH]c(-c6cc(OC)c(OC)c(OC)c6)nc5c4)nc3c2)CC1,M14,SRB,,"10 µM, 48 h",,growth percent,59%
C[C@H]1[C@@H](O)O[C@@H]2O[C@@]3(C)CC[C@H]4[C@H](C)CC[C@@H]1[C@@]24OO3,K562,"annexin V/PI flow cytometry, measured: annexin V-/PI+",,"3.2 µM, 24 h",,necrotic cells,0.2%
Cn1cc(-c2ccc(-c3cncc(Cl)c3N3CCC4(CCNC4=O)CC3)cc2)cn1,COLO 205,"gene expression, microarray, measured: SGK1 mRNA",,"concentration not given, 6 h",baseline: untreated cells,log2 fold change,4.59
Nc1ncnc2c1ncn2[C@@H]1O[C@H](CO)[C@@H](O)[C@H]1O,activated human T cells,,,10 µM,higher = more IFNγ,IFNγ production,328 a.u. and 353 a.u. and 423 a.u.
Nc1nccs1,human iPSC-derived cardiomyocytes,"MyBP-C/MYH ratio, plate-normalised SD score",,"concentration not given, primary screen",direction not given,activity score,4.5
Cc1cccn2c(=O)c(/C=C3\SC(=S)N(CC(C)C)C3=O)c(NCCCOC(C)C)nc12,C127 LDR GFP reporter cells,"silenced GFP reporter induction, activator, high-content imaging",,"retest, two-run mean",,efficacy,48%
CCCCN1C[C@H](O)[C@@H](O)[C@@H](O)[C@H]1CO,sample G patient fibroblasts,"Gb3 level lowering, LC-MS/MS, measured: Gb3 d18:1/24:0",,216 h,,IC50,23 µM
CN(C(=O)C(Cl)Cl)c1ccc(OC(=O)c2ccco2)cc1,human iPSC-derived cardiomyocytes,"MyBP-C/MYH ratio, plate-normalised SD score",,"concentration not given, primary screen",direction not given,activity score,3.6
C=C1C(=O)O[C@@H]2[C@H]3O[C@]3(C)CC/C=C(/C)CC[C@@H]12,C127 LDR GFP reporter cells,"silenced GFP reporter induction, activator, high-content imaging",,"retest, two-run mean",,efficacy,58%
